Results collected from several papers.
Each numbered part is a random draw from the data of one study; scales do not carry over between parts.

Sample 1
Target: Replicase polyprotein 1ab, main protease (rep, Severe acute respiratory syndrome coronavirus 2, UniProt P0DTD1)
Read-out: enzyme activity
Action: inhibitor
Endpoint: IC50
O=C(c1cccs1)c1no[n+]([O-])c1C(=O)c1cccs1: > 20 µM
O=C1C(=Cc2cccnc2)C(=O)c2ccccc21: > 20 µM
CN(C)S(=O)(=O)c1cccc(-n2sc3ccccc3c2=O)c1: 0.01 µM
CC(C)(C)OC(=O)NCCc1nnc(S(=O)(=O)Cc2ccc(Cl)cc2Cl)o1: 7.55 µM
Nc1c[n+](N2CCOCC2)no1: > 20 µM

Sample 2
Target: Interferon regulatory factor 5, full length, phosphomimetic (IRF5, Homo sapiens, UniProt Q13568-2, residues 1-514, S451D/S453D/S456D/S462D)
Method: protein-binding microarray
Molecule type: double-stranded DNA, one strand shown
Matrix: in vitro
Concentration: 940 nM top
Notes: 60-bp whole probe
Added: salmon DNA 0.4 mg/ml
Relative to: random background probes
Direction: higher = stronger binding
Endpoint: fitted relative affinity
Shared flanks, not repeated: GCCTAGCAC … GTCTTGATTCGCTTGACGCTGCTG
TCAATGCTGGCTTTTATACTGTGCTAG: -0.169 z-score
TTAGGACTGGGGTTTCGGTTCGTGCTA: 5.08 z-score
GACGGTATCCTTAGCCTGACGTGCTAG: 0.24 z-score
GCCGAACTGAGTTTCGAGACGTGCTAG: 4.49 z-score
GCCGGTATCGGTCTCGGGACGTGCTAG: 9.99 z-score
TCATGTTTAAGAATGTTACTGTGCTAG: 0.163 z-score
ACTAGTTTTCATTTTCTGAAGTGCTAG: 1.94 z-score
TTAGGTATCGACACTGGGTTAGTGCTA: 4.7 z-score

Sample 3
Target: Replicase polyprotein 1ab, polymerase (rep, Severe acute respiratory syndrome coronavirus 2, UniProt P0DTD1)
Read-out: enzyme activity
Action: inhibitor
Concentration: 20 µM
Endpoint: inhibition
CC1(C)[C@H]2CC[C@]1(C)C(=O)C2: -0.72%
CCCN(C/C=C/I)C1CCc2ccc(O)cc2C1 (stereo not drawn): 0.07%
CCN(CCCc1ccccc1)CCCc1ccccc1: 7.84%
O=C(/C=C/C=C/c1ccc2c(c1)OCO2)N1CCCCC1: 2.81%
N#Cc1ccc(Oc2ccc3c(c2)COB3O)cc1: -2.7%
COC(=O)CN1CN(c2ccccc2)C2(CCN(Cc3cccc4ccccc34)CC2)C1=O: -5.7%
CC(=O)N1CCC[C@H]1C(=O)N[C@@H](Cc1cnc[nH]1)C(=O)N[C@@H](CO)C(=O)N[C@@H](CS)C(=O)N[C@@H](CC(N)=O)C(N)=O: -4.08%
CC(O)Cn1cnc2c1c(=O)n(C)c(=O)n2C (stereo not drawn): -0.41%
CN(Cc1cccc(-c2ccccc2)c1)C(=O)Oc1ccc(-c2ccc(C(N)=O)cc2)cc1: 3.61%
Cc1cc(-c2nc(-c3ccc(OC(F)(F)F)cc3)no2)nn1Cc1ccnc(N2CCN(C3CC3)CC2)c1: 0.46%
NC[C@@H]1CC[C@@H](N)[C@@H](O[C@H]2[C@H](O)[C@@H](O[C@H]3O[C@H](CO)[C@@H](O)[C@H](N)[C@H]3O)[C@H](N)C[C@@H]2N)O1: -7.71%
CCc1c(C(=O)C(N)=O)c2c(OCC(=O)O)cccc2n1Cc1ccccc1: -0.88%
OC(CCCN1CCN(c2ncc(F)cn2)CC1)c1ccc(F)cc1 (stereo not drawn): -0.96%
Cc1nc(C#Cc2ccnc(Cl)c2)c(C)n1-c1ccc(OC(F)(F)F)cc1: 0.79%
COc1ccc(NS(=O)(=O)c2ccc(/N=N/c3ccc(O)c(C(=O)O)c3)cc2)nn1: 14.3%
N[C@H](C(=O)O)c1ccc(O)c(C(=O)O)c1: -10.5%
c1ccc(-c2ccc(C(c3ccccc3)n3ccnc3)cc2)cc1 (stereo not drawn): 1.08%
N[C@H](C(=O)O)c1ccc(C(=O)O)c(C(=O)O)c1: -18.6%
O=C(/C=C/c1ccccc1)NC(NC(=S)Nc1cccc2cccnc12)C(Cl)(Cl)Cl (stereo not drawn): 3.31%
C[C@H](Nc1ncnc2nc[nH]c12)c1cc2cccc(Cl)c2c(=O)n1-c1ccccc1: 4.68%
COc1cc([C@@H]2c3cc4c(cc3[C@@H](O[C@@H]3O[C@@H]5CO[C@@H](c6cccs6)O[C@H]5[C@H](O)[C@H]3O)[C@H]3COC(=O)[C@H]23)OCO4)cc(OC)c1O: 4.77%
Nc1ncnc2c1nc(Br)n2[C@@H]1O[C@@H]2COP(=O)(O)O[C@H]2[C@H]1O: -5.91%
COc1ccccc1CC(=N)N1C[C@@H]2C(=O)CCC(c3ccccc3)(c3ccccc3)[C@@H]2C1: -2.12%
N#C/C(=C\c1ccc(O)c(O)c1)C(=O)OCCc1cccs1: 97.9%
COc1ccc(C[C@@H](C)NC[C@H](O)c2ccc(O)c(NC=O)c2)cc1 (racemic): -0.28%

Sample 4
Cell line: HEK-293T/ACE2
Concentration: concentration not given
Time: 16 (unit not given)
Relative to: vehicle
Endpoint: viability
CC1=C(C/C=C(\C)CCC[C@H](C)CCC[C@H](C)CCCC(C)C)C(=O)c2ccccc2C1=O: 99.4%
CCCCC(=O)N(Cc1ccc(-c2ccccc2-c2nnn[nH]2)cc1)[C@H](C(=O)O)C(C)C: 101%
CC(=O)O[C@H]1CC[C@@]2(C)C(=CC[C@@H]3[C@@H]2CC[C@]2(C)C(c4cccnc4)=CC[C@@H]32)C1: 102%
COc1ccc(Cl)cc1C(=O)NCCc1ccc(S(=O)(=O)NC(=O)NC2CCCCC2)cc1: 99.1%
CC(O)(P(=O)(O)O)P(=O)(O)O: 100%

Sample 5
Target: Histone acetyltransferase KAT6A, winged helix 1, GST fusion (KAT6A, Homo sapiens, UniProt Q92794, residues 1-85)
Method: protein binding microarray
Molecule type: double-stranded DNA, one strand shown
Matrix: in vitro
Concentration: not given
Notes: 8-mer, flanks averaged, mean of 2 arrays, mostly near background
Relative to: not given
Direction: higher = stronger binding
Endpoint: E-score
Residues (chain): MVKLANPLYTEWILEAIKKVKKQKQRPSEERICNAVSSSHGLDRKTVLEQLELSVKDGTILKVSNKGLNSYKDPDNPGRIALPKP
CGATAACC: 0.126
CAACGTGC: -0.0462
GGTCCGCA: 0.227
CGATACCC: 0.179
CTCACCGC: 0.121
AATCACTG: -0.0948
GCTTGGAA: -0.13
CGGCTATC: 0.352

Some of these lines once more (sample 5):
GGTCCGCA: 0.227
CTCACCGC: 0.121
CGGCTATC: 0.352
CGATACCC: 0.179
CAACGTGC: -0.0462
AATCACTG: -0.0948
GCTTGGAA: -0.13
